Measured values pooled from the literature.
A part holds a random share of what one study measured. Changes are numbered by the printed parent chain.

Block 1
Target: CREB3L1, bZIP domain (human)
Method: DHFR protein complementation
Matrix: yeast
Setting: single substitutions, most at no-binding floor
Reference: wild-type JUN-FOS pair
Direction: higher = stronger binding
Measurement: binding fitness
Starting sequence: JUN, bZIP domain (human); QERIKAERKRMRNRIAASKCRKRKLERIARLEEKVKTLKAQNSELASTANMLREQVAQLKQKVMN; partner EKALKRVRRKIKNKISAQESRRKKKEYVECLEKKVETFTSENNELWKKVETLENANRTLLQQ
Variant = A57K; value = -1.5 natural log
Variant = K36I; value = -1.4 natural log
Variant = T48W; value = -1.07 natural log
Variant = E54I; value = -1.2 natural log
Variant = E44K; value = -1.27 natural log
Variant = S43H; value = -1.17 natural log
Variant = V56P; value = -1.49 natural log
Variant = L45R; value = -1.52 natural log
Variant = E44V; value = -1.42 natural log

Block 2
Target: Histone acetyltransferase KAT6A, winged helix 2, GST fusion (KAT6A, Homo sapiens, UniProt Q92794, residues 85-181)
Method: protein binding microarray
Molecule type: double-stranded DNA, one strand shown
Matrix: in vitro
Tested at: not given
Setting: 8-mer, flanks averaged, mean of 2 arrays, mostly near background
Reference: not given
Direction: higher = stronger binding
Measurement: E-score
Target sequence (chain): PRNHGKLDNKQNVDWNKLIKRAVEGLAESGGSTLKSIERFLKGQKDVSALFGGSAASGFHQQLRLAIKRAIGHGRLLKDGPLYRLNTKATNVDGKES
Sequence = CAAGGAAA; value = -0.0652
Sequence = ACAACTGA; value = -0.0538
Sequence = TATCGACA; value = 0.0623
Sequence = AATGATTC; value = 0.105
Sequence = ACCACACA; value = -0.118
Sequence = ACAAGCGG; value = -0.0419
Sequence = GAGGGCCC; value = -0.0456
Sequence = ACCATGCG; value = 0.0529
Sequence = AGTCTATC; value = -0.0453
Sequence = AGCTGCGA; value = 0.163
Sequence = AGGTTGCG; value = 0.0235

Block 3
Target: Prothrombin, mature alpha-thrombin (F2, Homo sapiens, UniProt P00734)
Method: aptamer microarray, sandwich
Molecule type: DNA with 2'F-ANA
Matrix: in vitro
Tested at: 200 nM
Setting: whole 15-mer aptamer, many near background
Together with: Cy3 exosite-II aptamer, 400 nM
Direction: higher = stronger binding
Measurement: mean fluorescence intensity
Sequence: GGTTGGTGTGGTTGG
Modification = 2'F-ANA at 1 2 4 8 10 12 13 14 15; value = 64.1 a.u.
Modification = 2'F-ANA at 1 4 5 7 9 11 12 15; value = 75.2 a.u.
Modification = 2'F-ANA at 1 2 7 8 10 14 15; value = 160 a.u.
Modification = 2'F-ANA at 2 5 9 13; value = 54.3 a.u.
Modification = 2'F-ANA at 4 5 6 8 11 12 13 14; value = 43.7 a.u.
Modification = 2'F-ANA at 2 3 4 5 11 13 14; value = 61.8 a.u.
Modification = 2'F-ANA at 1 2 5 8 15; value = 67.3 a.u.
Modification = 2'F-ANA at 2 4 11 12 13 14; value = 120 a.u.
Modification = 2'F-ANA at 1 4 6 7 8 9 12 14; value = 55 a.u.
Modification = 2'F-ANA at 3 8 9 10 12 13 14; value = 406 a.u.

Other studies, line by line
Molecule = PhoQ, residues 284 288 289 292 302 303 SSLVEF; target = PhoP, residues 12 14 15 18 19 YHFSH (Escherichia coli, UniProt P23836); test = Sort-seq, measured: YFP reporter; test system = E. coli; conditions = PhoQ-PhoP variant library, together with: 10 µM Mg2+; how to read = reference: high Mg2+ state, higher = stronger signaling; measurement = fold induction; value = 2.55

For quick reference, copied from above (block 3):
Modification = 2'F-ANA at 1 2 7 8 10 14 15; value = 160 a.u.
Modification = 2'F-ANA at 1 2 5 8 15; value = 67.3 a.u.
